# Results of several laboratories.
# Compare with care: the assays were run in different laboratories. Numbers after ± are the reported error.
# Cell line: A549
SMILES,assay,conditions,how to read,endpoint,result
COc1cc(/C=C/c2cc(C)n[nH]2)ccc1O,PI staining flow cytometry,"50 µM, 48 h",,cells in S phase,6.48%
O=[C]=[Mn-2]12(=[C]=O)(=[C]=O)[O]c3cc4c(cc3=[N+]1CCc1ccccc1)[O][Mn-2](=[C]=O)(=[C]=O)(=[C]=O)([N+]=4CCc1ccccc1)[n+]1ccc(cc1)C(=O)Nc1ccccc1NC(=O)c1cc[n+]2cc1,MTT,"50 µM, 48 h, photolysed compound",,viability reduction,75%
Cc1c(Cl)c(=O)oc2cc(OCCCCCCSC#N)ccc12,"cell growth or viability, SRB",,,GI50,14 µM
C[C@@H]1O[C@H]2O[C@@H]3C4(O)C(=O)c5cccc(O)c5C(=O)C4(O)O[C@]3(C)[C@]21O (some centres unmarked),"cell growth or viability, MTT",48 h,,EC50,128 µM
CCN(C(=O)c1cc(F)ccc1Oc1nncnc1N1CCC2(C1)CN([C@H](CCCN(C)CCOC)C(C)C)C2)C(C)C,cell growth or viability,72 h,,GI50,> 10 µM
CC(C)(COP(=O)(O)OP(=O)(O)OC[C@H]1O[C@@H](n2cnc3c(N)ncnc32)[C@H](O)[C@@H]1OP(=O)(O)O)[C@@H](O)C(=O)NCCC(=O)NCCSCCC(=O)N[C@@H](CO)C(=O)NCC(=O)N[C@@H](CCCNC(=N)N)C(=O)NCC(=O)N[C@@H](CCCCN)C(=O)NCCCC[C@H](NC(=O)CC[C@@H]1NC(=O)[C@@H](CCCNC(=N)N)NC(=O)[C@H](CCCNC(=N)N)NC(=O)[C@@H](CCCNC(=N)N)NC(=O)[C@H](CCCNC(=N)N)NC(=O)[C@H](Cc2csc3ccccc23)NC(=O)[C@@H](Cc2ccccc2)NC(=O)[C@H](Cc2ccccc2)NC1=O)C(N)=O,"N-cadherin expression reduction, Western blot",2 days,,lowest effective concentration,0.1 µM
CCNc1cc2c(cc1C)C1(c3cc(C)c(NCC)cc3O2)c2ccccc2C(=O)N1N=Cc1c[c-]c(-c2ccccn2)cc1.Cc1c(C)c(-c2ccc(-c3ccccc3)cc2)[c-](C)c1C.[Cl-].[Ir+3],annexin V/PI flow cytometry,"1.0×IC50, 24 h",,early apoptotic cells,6.57 ± 0.5%
Nc1ccc[n+]([Pt-2]([Cl])([Cl])[n+]2cccc(N)c2Cl)c1Cl,"cell viability, MTT",24 h,,IC25,34.3 µM
O=C1C(Br)=C(Br)C(=O)c2ccccc21,MTT,,reference: IC50 MRC-5 over IC50 A549,selectivity index,1.43
COc1ccccc1[C@H](Cn1c(=O)n(C(C)(C)C(N)=O)c(=O)c2c(C)c(-c3ncco3)sc21)OC1CCOCC1,cell proliferation,168 h,reference: vehicle,EC50,0.07 µM
Cc1cc(/C=C/c2ccc(O)c(O)c2)[nH]n1,PI staining flow cytometry,"50 µM, 48 h",,cells in G1 phase,48.3%
COc1c(C)c(O)c(C(=O)C=Cc2ccccc2)c(OC)c1C,,,reference: CL over A549,selectivity index,1
CCCCCCCCCCCCCCCCCCOc1ccccc1CCOP(=O)([O-])OCC[N+](C)(C)C,"cell growth or viability, SRB",10 µM,,inhibition,38.6%
COC(=O)c1cc(NC2=NC(=O)C(=Cc3ccc(N(C)C)cc3)S2)ccc1OC(C)=O,refers to: CHEK2 mRNA,"2.93 µM (IC50), 24 h",reference: DMSO,fold change,0.0594
COc1cc(/C=C/C(=O)CC(C)=O)ccc1O,PI staining flow cytometry,"50 µM, 48 h",,cells in G2/M phase,25%
COc1cccc2c1cc1c3c(cc4c(c32)OCO4)[C@@H]2c3c4c5c(cc6c(c5c5cccc(OC)c35)OCO6)CCN4[C@@H]2N1C (racemic),"cytotoxicity, MTT","50 µg/mL, 48 h",,inhibition,< 50%
N#C[Se]CCCCCCOc1ccc2c(-c3ccccc3)cc(=O)oc2c1,"cell growth or viability, SRB",,,GI50,22 µM
CCCC(CCC)C(=O)OCc1cn(-c2cc3ccccc3oc2=O)nn1,NCI60 single dose,10 µM,,growth,88.7%
CCCC[N+]1=c2cc3c4cc2[O][Mn-2]1(=[C]=O)(=[C]=O)(=[C]=O)[n+]1ccc(cc1)C(=O)Oc1ccccc1OC(=O)c1cc[n+](cc1)[Mn-2](=[C]=O)(=[C]=O)(=[C]=O)([O]3)[N+]=4CCCC,MTT,"50 µM, 48 h, photolysed compound",,viability reduction,72%
O=C1C(Cl)=C(Cl)C(=O)c2c(O)ccc(O)c21,MTT,,reference: IC50 MRC-5 over IC50 A549,selectivity index,0.71
CCCC[N+]1=c2cc3c4cc2[O][Mn-2]1(=[C]=O)(=[C]=O)(=[C]=O)[n+]1ccc(cc1)C(=O)OCCOCCOC(=O)c1cc[n+](cc1)[Mn-2](=[C]=O)(=[C]=O)(=[C]=O)([O]3)[N+]=4CCCC,MTT,"50 µM, 48 h, photolysed compound",,viability reduction,69%
COc1c(C)c(OS(=O)(=O)c2ccccc2)c(C)c2c1C(=O)CC(c1ccccc1)O2 (centres unmarked),,,reference: CL over A549,selectivity index,> 1.32
O=C(/C=C/c1ccccc1)Nc1cc(-c2ccnc(N3CCC(CO)CC3)c2)ccn1,"cell growth or viability, MTT",5 µM,,inhibition,69.2%
NC(=O)c1ccc(-c2ccccc2Cl)c2c3c([nH]c12)CCC(N)C3 (centres unmarked),cell growth or viability,,,IC50,0.0268 µM
CCCC[N+]1=c2cc3c4cc2[O][Mn-2]1(=[C]=O)(=[C]=O)(=[C]=O)[n+]1ccc(cc1)C(=O)Nc1ccccc1NC(=O)c1cc[n+](cc1)[Mn-2](=[C]=O)(=[C]=O)(=[C]=O)([O]3)[N+]=4CCCC,MTT,"50 µM, 48 h, photolysed compound",,viability reduction,90%
CC(=O)O[C@H]1C[C@H](O[C@H]2[C@@H](O)C[C@H](O[C@H]3[C@@H](O)C[C@H](O[C@H]4CC[C@@]5(C)[C@H](CC[C@@H]6[C@@H]5CC[C@]5(C)[C@@H](C7=CC(=O)OC7)CC[C@]65O)C4)O[C@@H]3C)O[C@@H]2C)O[C@H](C)[C@H]1O[C@@H]1O[C@H](CO)[C@@H](O[C@@H]2O[C@H](CO)[C@@H](O)[C@H](O)[C@H]2O)[C@H](O)[C@H]1O,"cell growth or viability, MTT","5 µM, 24 h",,inhibition,73.5%

# For quick reference, copied from above:
SMILES,assay,conditions,how to read,endpoint,result
CCNc1cc2c(cc1C)C1(c3cc(C)c(NCC)cc3O2)c2ccccc2C(=O)N1N=Cc1c[c-]c(-c2ccccn2)cc1.Cc1c(C)c(-c2ccc(-c3ccccc3)cc2)[c-](C)c1C.[Cl-].[Ir+3],annexin V/PI flow cytometry,"1.0×IC50, 24 h",,early apoptotic cells,6.57 ± 0.5%
CCCCCCCCCCCCCCCCCCOc1ccccc1CCOP(=O)([O-])OCC[N+](C)(C)C,"cell growth or viability, SRB",10 µM,,inhibition,38.6%
